Measured values of several laboratories.
Numbers after ± are the reported error.

| Structure (SMILES) | cell line | effect on | method | sample | time | setting | IC50 |
| --- | --- | --- | --- | --- | --- | --- | --- |
| CC1(C)CCCC(C)(C2CCC3(C)C2C(O)CC2C4(C)CCC(OC(=O)/C=C\c5ccccc5)C(C)(C)C4C(O)CC23C)O1 (stereo not drawn) | Hep3B | cell growth or viability | MTT |  | 24 h |  | > 30 µM |
| COC(=O)C1CN1S(=O)(=O)c1ccc2c(N(C)C)cccc2c1 (stereo not drawn) | Balb/c 3T3 fibroblasts | cytotoxicity | neutral red uptake | DMEM with 5% FBS | 24 h |  | 29 ± 1 µM |
| CC(C)[C@H](N)C(=O)OC1CCC2(C)C(C(O)CC3(C)C2CC(O)C2C(C4(C)CCCC(C)(C)O4)CCC23C)C1(C)C (stereo partly drawn) | Hep3B | cell growth or viability | MTT |  | 24 h |  | > 30 µM |
| Nc1ccn(C2OC(CO)C3CC=CCC32)c(=O)n1 (mixture of isomers) | CEM | cell growth |  |  | 6 days |  | > 100 µM |
| COC(=O)C1CN1S(=O)(=O)c1cccc2c(C=O)c(N(C)C)ccc12 (stereo not drawn) | Balb/c 3T3 fibroblasts | cytotoxicity | neutral red uptake | DMEM with 5% FBS | 24 h |  | 26 ± 5 µM |
| CC1(C)CCCC(C)(C2CCC3(C)C2C(O)CC2C4(C)CCC(OC(=O)c5cn(-c6ccc(Cl)cc6)nn5)C(C)(C)C4C(OC(=O)c4cn(-c5ccc(Cl)cc5)nn4)CC23C)O1 (stereo not drawn) | Hep3B | cell growth or viability | MTT |  | 24 h |  | > 30 µM |
| O=C(NCCc1cccc(F)c1)[C@@H]1C[C@@H](Sc2nc3ccccc3[nH]2)CN1Cc1cccc(Cl)c1 | MGC-803 | cell growth or viability | CCK-8 |  | 24 h |  | 33.6 µM |
| CCCCCCCCCCN1C(=O)/C(=N\NC(=N)N)c2cc(C)ccc21 | BJ | cell growth or viability | MTT |  | 24 h |  | 5.4 µg/mL |
| CC(C)C(NC(=O)OC(C)(C)C)C(=O)OC1CC2(C)C(CC(O)C3C(C4(C)CCCC(C)(C)O4)CCC32C)C2(C)CCC(OC(=O)C(NC(=O)OC(C)(C)C)C(C)C)C(C)(C)C12 (stereo not drawn) | Hep3B | cell growth or viability | MTT |  | 24 h |  | > 30 µM |
| CN(C)C(=O)C1CN1S(=O)(=O)c1ccc2cc(N(C)C)ccc2c1 (stereo not drawn) | Balb/c 3T3 fibroblasts | cytotoxicity | neutral red uptake | DMEM with 5% FBS | 24 h |  | 12 ± 0.4 µM |
| Clc1ccc2ccc3[n+](c2c1)[Ir-3]12([c]4ccccc4-3)([c]3ccccc3-c3ccc4ccc(Cl)cc4[n+]31)[n+]1ccccc1-c1cccc[n+]12.F[P-](F)(F)(F)(F)F | MDA-MB-231 CDK9 overexpressing | cytotoxicity | MTT |  |  |  | 0.09 µM |
| O=C(Nc1ccc2c(c1)CN(c1ccc(Cl)cc1)C2=O)N1CC[C@H](F)C1 | MRC-5 SV2 | cytotoxicity |  |  |  |  | > 64 µM |
| Oc1cc2nc(c1)CNCc1cc(O)cc(n1)CNC2 | HT-22 | cytotoxicity | MTT |  | 16 h |  | 566 µM |
| CC(=O)OCC1OC(n2cnc3c(Cl)nc(Cl)nc32)C2CC=CCC12 (mixture of isomers) | CEM | cell growth |  |  | 6 days |  | 5.9 µM |
| C=C1C(=O)O[C@@H]2/C=C(\C)CC/C=C(/C(=O)OC)[C@H](OC(C)=O)[C@@H](OC(=O)/C(C)=C\C)[C@@H]12 | NIH/3T3 | cytotoxicity | WST-8 |  | 24 h | 10% FBS | 9.09 µM |
| O=C(Nc1ccc2c(c1)CN(c1ccccc1)C2=O)N1CC[C@H](F)C1 | MRC-5 SV2 | cytotoxicity |  |  |  |  | > 64 µM |
| C=C1C(=O)OC2C=C(C)CCC=C(C(=O)OC(C)C(C)(O)C(=O)OC3C(OC(C)=O)C(C(=O)OC)=CCCC4(C)OC4C4OC(=O)C(=C)C34)CC(OC(=O)C(C)=CC)C12 (stereo not drawn) | NIH/3T3 | cytotoxicity | WST-8 |  | 48 h | 10% FBS | 1.67 µM |
| CC1(C)CCCC(C)(C2CCC3(C)C2C(O)CC2C4(C)CCC(OC(=O)CN)C(C)(C)C4C(O)CC23C)O1 (stereo not drawn) | Hep3B | cell growth or viability | MTT |  | 24 h |  | > 30 µM |

| Structure (SMILES) | cell line | effect on | method | sample | time | setting | IC50 |
| --- | --- | --- | --- | --- | --- | --- | --- |
| COC(=O)C1CN1S(=O)(=O)c1ccc2c(C=O)c(N(C)C)ccc2c1 (stereo not drawn) | Balb/c 3T3 fibroblasts | cytotoxicity | neutral red uptake | DMEM with 5% FBS | 24 h |  | 11 ± 0.2 µM |
| O=C(Nc1ccc2c(c1)CN(c1ccc(Cl)cc1)C2=O)N1CCN(c2ccc(F)cc2)CC1 | MRC-5 SV2 | cytotoxicity |  |  |  |  | > 64 µM |
| C=C1C(=O)O[C@@H]2/C=C(\C)CC/C=C(/C(=O)OC)C[C@@H](OC(=O)/C(C)=C\C)[C@@H]12 | NIH/3T3 | cytotoxicity | WST-8 |  | 24 h | 10% FBS | 13.9 µM |
| Nc1nc(Cl)nc2c1ncn2C1OC(CO)C2CC=CCC21 (mixture of isomers) | CEM | cell growth |  |  | 6 days |  | > 100 µM |
| O=C(Nc1ccc2c(c1)CN(c1ccc(F)c(F)c1)C2=O)N1CCN(c2ccc(F)cc2)CC1 | MRC-5 SV2 | cytotoxicity |  |  |  |  | > 64 µM |
| CC(=O)OCC1OC(n2cc(C)c(=O)[nH]c2=O)C2CC=CCC12 (mixture of isomers) | CEM | cell growth |  |  | 6 days |  | > 100 µM |
| COC(=O)C1CN1S(=O)(=O)c1cccc2c(N(C)C)cccc12 (stereo not drawn) | Balb/c 3T3 fibroblasts | cytotoxicity | neutral red uptake | DMEM with 5% FBS | 24 h |  | 100 ± 7 µM |
| Cc1cc(=O)c2c(O)c3c(O[C@@H]4O[C@H](CO)[C@@H](O)[C@H](O)[C@H]4O)cc(O)cc3cc2o1 | HepaRG in HK-2 co-culture | cell viability | MTT |  | 48 h |  | 90.4 µM |
| COc1ccc(-n2cc(C(=O)OC3CCC4(C)C(C(O)CC5(C)C4CC(O)C4C(C6(C)CCCC(C)(C)O6)CCC45C)C3(C)C)nn2)cc1 (stereo not drawn) | Hep3B | cell growth or viability | MTT |  | 24 h |  | > 30 µM |
| CCCC(CCC)C(=O)[O][Pt]([Cl])([Cl])[O]C(=O)C(CCC)CCC.N.N | HCT-116 p53-/- | cytotoxicity |  |  | 72 h |  | 1.4 ± 0.2 µM |
| CCCCCCCCc1ccc(S(=O)(=O)N2CC2C(=O)OC)cc1 (stereo not drawn) | Balb/c 3T3 fibroblasts | cytotoxicity | neutral red uptake | DMEM with 5% FBS | 24 h |  | 110 ± 3 µM |
| CC(C)(C)OC(=O)NC(Cc1c[nH]c2ccccc12)C(=O)OC1CC2(C)C(CC(O)C3C(C4(C)CCCC(C)(C)O4)CCC32C)C2(C)CCC(OC(=O)C(Cc3c[nH]c4ccccc34)NC(=O)OC(C)(C)C)C(C)(C)C12 (stereo not drawn) | Hep3B | cell growth or viability | MTT |  | 24 h |  | > 30 µM |
| O=C(Nc1ccc2c(c1)CN(c1ccc(Cl)c(Cl)c1)C2=O)N1CCN(c2ccc(Cl)cc2)CC1 | MRC-5 SV2 | cytotoxicity |  |  |  |  | > 64 µM |
| CC1(C)CCCC(C)(C2CCC3(C)C2C(O)CC2C4(C)CCC(OC(=O)C=Cc5ccc(Cl)cc5)C(C)(C)C4C(OC(=O)C=Cc4ccc(Cl)cc4)CC23C)O1 (stereo not drawn) | Hep3B | cell growth or viability | MTT |  | 24 h |  | > 30 µM |
| COC(=O)C1CN1S(=O)(=O)c1cccc2cc(N(C)C)ccc12 (stereo not drawn) | Balb/c 3T3 fibroblasts | cytotoxicity | neutral red uptake | DMEM with 5% FBS | 24 h |  | 44 ± 5 µM |
| O=C(Nc1ccc2c(c1)CN(c1ccccc1)C2=O)N1CC[C@H](O)C1 | MRC-5 SV2 | cytotoxicity |  |  |  |  | > 64 µM |
| C=C1C(=O)OC2C=C(C)CCC=C(C(=O)OC(C)C(C)(O)C(=O)OC3C(OC(C)=O)C(C(=O)OC)=CCCC(C)=CC4OC(=O)C(=C)C43)CC(OC(=O)C(C)=CC)C12 (stereo not drawn) | NIH/3T3 | cytotoxicity | WST-8 |  | 24 h | 10% FBS | 4.98 µM |
| CCCCCCc1ccc(S(=O)(=O)N2CC2C(N)=O)cc1 (stereo not drawn) | Balb/c 3T3 fibroblasts | cytotoxicity | neutral red uptake | DMEM with 5% FBS | 24 h |  | 15 ± 2 µM |

Repeated from above:
| Structure (SMILES) | cell line | effect on | method | sample | time | setting | IC50 |
| --- | --- | --- | --- | --- | --- | --- | --- |
| C=C1C(=O)O[C@@H]2/C=C(\C)CC/C=C(/C(=O)OC)C[C@@H](OC(=O)/C(C)=C\C)[C@@H]12 | NIH/3T3 | cytotoxicity | WST-8 |  | 24 h | 10% FBS | 13.9 µM |
| O=C(Nc1ccc2c(c1)CN(c1ccccc1)C2=O)N1CC[C@H](O)C1 | MRC-5 SV2 | cytotoxicity |  |  |  |  | > 64 µM |
| CC(=O)OCC1OC(n2cnc3c(Cl)nc(Cl)nc32)C2CC=CCC12 (mixture of isomers) | CEM | cell growth |  |  | 6 days |  | 5.9 µM |
| Nc1ccn(C2OC(CO)C3CC=CCC32)c(=O)n1 (mixture of isomers) | CEM | cell growth |  |  | 6 days |  | > 100 µM |
